Assay results pooled from the literature.
Compare with care: the assays were run in different laboratories. Values joined by “and” are separate records of one study, mostly repeats; a detail may differ. ± gives the spread as reported.
MAOA: Amine oxidase [flavin-containing] A (MAOA, Homo sapiens, UniProt P21397)
UniProt P21397, sequence (whole entry, looked up): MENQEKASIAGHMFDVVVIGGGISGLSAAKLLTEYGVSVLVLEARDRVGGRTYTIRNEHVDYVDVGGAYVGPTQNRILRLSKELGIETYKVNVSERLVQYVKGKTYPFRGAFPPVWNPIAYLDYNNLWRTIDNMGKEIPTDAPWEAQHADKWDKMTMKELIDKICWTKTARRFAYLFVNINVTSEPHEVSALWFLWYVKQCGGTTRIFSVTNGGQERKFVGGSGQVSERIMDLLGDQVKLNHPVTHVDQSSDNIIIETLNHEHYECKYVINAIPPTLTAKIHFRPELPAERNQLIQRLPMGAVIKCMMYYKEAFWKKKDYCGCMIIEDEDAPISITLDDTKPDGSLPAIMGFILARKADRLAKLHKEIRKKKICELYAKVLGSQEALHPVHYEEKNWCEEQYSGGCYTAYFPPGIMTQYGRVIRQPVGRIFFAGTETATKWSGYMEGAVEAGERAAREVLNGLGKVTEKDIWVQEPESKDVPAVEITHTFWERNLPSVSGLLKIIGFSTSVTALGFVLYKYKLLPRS
CDK4: Cyclin-dependent kinase 4 (CDK4, Homo sapiens, UniProt P11802)
UniProt P11802, sequence (whole entry, looked up): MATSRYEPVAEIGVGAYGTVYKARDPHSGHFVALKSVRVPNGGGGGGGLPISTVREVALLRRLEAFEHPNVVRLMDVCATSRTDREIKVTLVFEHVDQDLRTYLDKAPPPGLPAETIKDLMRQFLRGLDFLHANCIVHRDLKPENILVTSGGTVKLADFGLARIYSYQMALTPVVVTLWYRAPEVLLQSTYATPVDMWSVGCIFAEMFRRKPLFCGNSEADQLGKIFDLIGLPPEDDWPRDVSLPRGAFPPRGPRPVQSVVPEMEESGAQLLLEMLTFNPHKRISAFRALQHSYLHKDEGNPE
Gria2: Glutamate receptor 2 (Gria2, Rattus norvegicus, UniProt P19491)
DDR2: Discoidin domain-containing receptor 2 (DDR2, Homo sapiens, UniProt Q16832)
UniProt Q16832, sequence (whole entry, looked up): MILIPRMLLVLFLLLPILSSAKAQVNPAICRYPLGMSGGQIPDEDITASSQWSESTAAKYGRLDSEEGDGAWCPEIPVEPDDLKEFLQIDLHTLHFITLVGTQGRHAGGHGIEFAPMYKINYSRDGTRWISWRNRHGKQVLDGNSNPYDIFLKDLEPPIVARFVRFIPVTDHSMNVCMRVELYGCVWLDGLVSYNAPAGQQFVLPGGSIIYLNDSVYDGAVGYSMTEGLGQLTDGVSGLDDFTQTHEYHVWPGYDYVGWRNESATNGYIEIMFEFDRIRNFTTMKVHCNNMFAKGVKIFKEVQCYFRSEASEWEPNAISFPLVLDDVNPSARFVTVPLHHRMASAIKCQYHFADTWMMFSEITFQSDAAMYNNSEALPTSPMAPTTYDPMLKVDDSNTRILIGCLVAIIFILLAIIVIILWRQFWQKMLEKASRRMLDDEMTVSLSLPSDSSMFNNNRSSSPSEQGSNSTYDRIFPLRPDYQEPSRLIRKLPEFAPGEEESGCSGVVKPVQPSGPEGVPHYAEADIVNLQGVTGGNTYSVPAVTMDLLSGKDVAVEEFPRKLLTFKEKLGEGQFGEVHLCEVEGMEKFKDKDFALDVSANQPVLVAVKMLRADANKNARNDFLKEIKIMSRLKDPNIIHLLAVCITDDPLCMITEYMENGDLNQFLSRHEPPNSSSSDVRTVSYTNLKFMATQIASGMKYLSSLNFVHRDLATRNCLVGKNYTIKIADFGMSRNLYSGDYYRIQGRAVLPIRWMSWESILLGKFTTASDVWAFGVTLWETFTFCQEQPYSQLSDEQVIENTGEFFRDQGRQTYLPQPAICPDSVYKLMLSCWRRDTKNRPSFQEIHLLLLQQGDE
SIRT5: NAD-dependent protein deacylase sirtuin-5, mitochondrial (SIRT5, Homo sapiens, UniProt Q9NXA8)
UniProt Q9NXA8, sequence (whole entry, looked up): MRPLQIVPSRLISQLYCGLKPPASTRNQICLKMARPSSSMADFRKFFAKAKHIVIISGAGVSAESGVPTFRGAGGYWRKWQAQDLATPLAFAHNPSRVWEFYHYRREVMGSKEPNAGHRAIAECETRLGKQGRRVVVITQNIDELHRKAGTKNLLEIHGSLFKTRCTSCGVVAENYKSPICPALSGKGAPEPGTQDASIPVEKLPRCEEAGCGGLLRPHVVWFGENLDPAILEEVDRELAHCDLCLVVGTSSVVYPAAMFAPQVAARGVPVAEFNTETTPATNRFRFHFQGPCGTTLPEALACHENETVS
CDK4 with cyclin D1: Cyclin-dependent kinase 4, with cyclin D1 (CDK4, Homo sapiens, UniProt P11802)
VKORC1: Vitamin K epoxide reductase complex subunit 1 (VKORC1, Homo sapiens, UniProt Q9BQB6)
UniProt Q9BQB6, sequence (whole entry, looked up): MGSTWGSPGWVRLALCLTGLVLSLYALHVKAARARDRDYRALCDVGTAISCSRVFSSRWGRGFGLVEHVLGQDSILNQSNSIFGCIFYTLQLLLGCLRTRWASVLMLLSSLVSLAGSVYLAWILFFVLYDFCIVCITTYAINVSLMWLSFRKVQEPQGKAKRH
MARS2: Methionine--tRNA ligase, mitochondrial (MARS2, Homo sapiens, UniProt Q96GW9)
UniProt Q15858, sequence (whole entry, unmodified, looked up): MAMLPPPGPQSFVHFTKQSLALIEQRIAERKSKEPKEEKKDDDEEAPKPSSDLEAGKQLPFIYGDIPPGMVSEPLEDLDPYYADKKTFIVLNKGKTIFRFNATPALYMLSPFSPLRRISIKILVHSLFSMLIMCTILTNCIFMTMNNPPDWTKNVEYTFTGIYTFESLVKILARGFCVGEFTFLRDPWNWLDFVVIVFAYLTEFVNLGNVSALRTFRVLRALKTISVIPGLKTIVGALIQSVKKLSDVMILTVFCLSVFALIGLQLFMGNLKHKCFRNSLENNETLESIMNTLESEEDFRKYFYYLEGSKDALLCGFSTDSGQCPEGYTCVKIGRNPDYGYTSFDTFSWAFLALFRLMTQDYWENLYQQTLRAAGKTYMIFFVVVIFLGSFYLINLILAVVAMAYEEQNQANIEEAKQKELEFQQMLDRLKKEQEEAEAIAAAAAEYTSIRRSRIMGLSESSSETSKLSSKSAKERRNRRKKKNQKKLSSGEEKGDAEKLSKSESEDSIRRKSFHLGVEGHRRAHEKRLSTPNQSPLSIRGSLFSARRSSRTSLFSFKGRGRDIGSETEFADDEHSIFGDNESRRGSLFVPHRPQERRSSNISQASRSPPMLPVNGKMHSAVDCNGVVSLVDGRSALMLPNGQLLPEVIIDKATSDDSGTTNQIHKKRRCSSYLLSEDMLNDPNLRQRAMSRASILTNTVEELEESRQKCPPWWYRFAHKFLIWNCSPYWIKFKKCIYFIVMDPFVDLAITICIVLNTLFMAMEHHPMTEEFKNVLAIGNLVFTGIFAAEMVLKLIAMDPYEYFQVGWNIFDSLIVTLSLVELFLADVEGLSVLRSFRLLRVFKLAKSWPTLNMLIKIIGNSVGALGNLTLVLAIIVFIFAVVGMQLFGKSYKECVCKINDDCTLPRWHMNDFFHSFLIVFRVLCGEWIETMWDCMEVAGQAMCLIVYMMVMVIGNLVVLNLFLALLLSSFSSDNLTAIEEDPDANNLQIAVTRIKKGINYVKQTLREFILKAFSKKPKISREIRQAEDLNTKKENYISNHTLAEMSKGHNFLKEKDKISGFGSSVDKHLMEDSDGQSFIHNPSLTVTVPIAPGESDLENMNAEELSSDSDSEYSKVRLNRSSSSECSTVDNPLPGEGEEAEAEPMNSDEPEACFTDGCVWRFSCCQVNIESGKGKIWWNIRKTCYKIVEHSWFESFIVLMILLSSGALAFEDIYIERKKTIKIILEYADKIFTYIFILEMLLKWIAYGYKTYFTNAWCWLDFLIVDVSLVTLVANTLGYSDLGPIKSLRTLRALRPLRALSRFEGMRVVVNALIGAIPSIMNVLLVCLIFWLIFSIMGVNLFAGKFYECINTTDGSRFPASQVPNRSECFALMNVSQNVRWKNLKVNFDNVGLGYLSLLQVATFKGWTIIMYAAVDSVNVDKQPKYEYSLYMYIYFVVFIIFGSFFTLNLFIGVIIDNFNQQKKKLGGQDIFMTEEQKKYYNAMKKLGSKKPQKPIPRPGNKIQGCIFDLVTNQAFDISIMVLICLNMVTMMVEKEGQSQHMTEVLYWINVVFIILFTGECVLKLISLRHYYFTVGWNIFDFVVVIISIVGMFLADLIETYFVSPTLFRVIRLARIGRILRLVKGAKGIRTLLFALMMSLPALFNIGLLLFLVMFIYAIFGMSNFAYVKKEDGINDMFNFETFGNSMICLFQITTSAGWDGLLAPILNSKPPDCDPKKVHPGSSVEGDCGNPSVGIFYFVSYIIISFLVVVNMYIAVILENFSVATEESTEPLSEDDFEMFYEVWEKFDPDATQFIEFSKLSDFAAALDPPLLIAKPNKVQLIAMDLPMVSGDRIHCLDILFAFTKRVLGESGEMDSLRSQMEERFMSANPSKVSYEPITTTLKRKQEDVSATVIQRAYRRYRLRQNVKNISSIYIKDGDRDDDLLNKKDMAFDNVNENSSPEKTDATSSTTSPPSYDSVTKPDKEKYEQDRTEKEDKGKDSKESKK
UniProt Q96GW9, sequence (whole entry, looked up): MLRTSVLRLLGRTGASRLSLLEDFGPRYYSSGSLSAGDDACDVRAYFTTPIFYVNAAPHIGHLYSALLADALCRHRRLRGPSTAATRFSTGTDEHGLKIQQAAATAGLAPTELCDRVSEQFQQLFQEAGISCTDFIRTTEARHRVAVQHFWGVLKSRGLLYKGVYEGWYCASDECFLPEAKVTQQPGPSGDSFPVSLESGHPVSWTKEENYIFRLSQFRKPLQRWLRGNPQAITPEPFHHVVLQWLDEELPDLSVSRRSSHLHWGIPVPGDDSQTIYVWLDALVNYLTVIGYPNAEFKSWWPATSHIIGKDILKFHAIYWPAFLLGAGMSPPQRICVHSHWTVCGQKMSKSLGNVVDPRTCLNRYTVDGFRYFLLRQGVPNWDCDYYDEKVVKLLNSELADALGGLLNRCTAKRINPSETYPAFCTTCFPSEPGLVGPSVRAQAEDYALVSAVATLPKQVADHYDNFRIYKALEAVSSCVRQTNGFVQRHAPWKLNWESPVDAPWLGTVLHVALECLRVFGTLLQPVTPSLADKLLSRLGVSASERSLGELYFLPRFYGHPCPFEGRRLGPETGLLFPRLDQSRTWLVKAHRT
UniProt Q9Y6W8, sequence (whole entry, looked up): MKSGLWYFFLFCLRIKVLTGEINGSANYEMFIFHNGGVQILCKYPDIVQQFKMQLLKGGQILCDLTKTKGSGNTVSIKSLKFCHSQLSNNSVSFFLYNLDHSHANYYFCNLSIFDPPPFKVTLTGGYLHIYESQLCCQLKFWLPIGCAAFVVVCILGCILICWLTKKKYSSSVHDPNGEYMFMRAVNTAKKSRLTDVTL

SMILES	target or system	assay	system	conditions	scale	quantity	result
Cc1cc(C)n(-c2nc(-c3ccccc3)cc(=O)n2CC(=O)N2CCCCCC2)n1	Leucyl-cystinyl aminopeptidase (LNPEP, Homo sapiens, UniProt Q9UIQ6)	enzyme activity, inhibitor, fluorescence	–	–	–	IC50	55000 nM
CC(C)c1ccc(/C=C/C(=O)c2ccc(Br)cc2)cc1	MAOA	enzyme activity, inhibitor	–	–	–	IC50	1300 nM
CNC(=O)c1ccc(-c2cc(Cl)cc(Cl)c2Cl)c(N)n1	Sodium channel protein type 9 subunit alpha (SCN9A, Homo sapiens, UniProt Q15858, S1445G)	ion current, inhibitor, patch clamp	–	–	–	IC50	230 nM
CC(C)c1ccc(/C=C/C(=O)c2c[nH]c3ccccc23)cc1	MAOA	enzyme activity, inhibitor	–	–	–	IC50	5820 nM
CCCCCC(=O)Nc1ccc(Nc2ncc(F)c(-c3cc(F)c4nc(C)n(C(C)C)c4c3)n2)cc1	CDK4	–	–	–	–	IC50	2.5 nM
O=C(O)Cc1cc2c(cc1C(=O)c1cccc(Br)c1)OCO2	Gria2	glutamate-evoked current, inhibitor, whole-cell patch clamp	HEK293T, homomeric receptor	–	–	IC50	4270 nM
O=C(CN1CN(c2ccccc2)C2(CCN(C(=O)c3ccc4[nH]nnc4c3)CC2)C1=O)NCC(F)(F)F	DDR2	ligand displacement	–	–	–	IC50	65800 nM
N#Cc1ccc(Nc2nc(N)cc(Oc3ccc(-c4cccc(F)c4)cc3F)n2)cc1	Gag-Pol polyprotein, reverse transcriptase (gag-pol, Human immunodeficiency virus 1, UniProt P03366)	enzyme activity, inhibitor	–	–	–	IC50	120 nM
O=C(CN1CN(c2ccccc2)C2(CCN(C(=O)c3ccc4[nH]ncc4c3)CC2)C1=O)N1CCOCC1	DDR2	ligand displacement	–	–	–	IC50	4910 nM
O=C(Nc1ccc(C(=O)Nc2ccc3c(O)cc(S(=O)(=O)O)cc3c2)cc1)c1ccccc1	Three-prime repair exonuclease 1 (Trex1, Mus musculus, UniProt Q91XB0)	protein-nucleic acid interaction, inhibitor, FP	–	–	–	IC50	1890 nM
O=C(CN1CN(c2ccccc2)C2(CCN(C(=O)c3ccc4[nH]ncc4c3)CC2)C1=O)Nc1ccccn1	DDR2	ligand displacement	–	–	–	IC50	282 nM
C[C@@H]1CN(Cc2ccc(S(=O)(=O)n3cnc(C4CC4)n3)cc2)[C@@H](C)CN1c1cc(=O)n(C)c2ccc(C#N)nc12	Diacylglycerol kinase alpha (DGKA, Homo sapiens, UniProt P23743)	inhibitor, ADP-Glo	–	with: DAG micelles	–	IC50	575 nM
Cc1cc(O)c2c(c1O)C(=O)c1cc(O)cc(O)c1C2=O	MAOA	enzyme activity, inhibitor	–	–	–	IC50	~9000 nM and 9130 nM
O=C(CN1CN(c2ccccc2)C2(CCN(C(=O)c3ccc4[nH]ncc4c3)CC2)C1=O)N(CCO)CC(F)(F)F	DDR2	ligand displacement	–	–	–	IC50	2680 nM
Cc1nc2c(F)cc(-c3nc(Nc4ccc(NC(=O)CCCCCCC(=O)NO)nc4)ncc3F)cc2n1C(C)C	CDK4	–	–	–	–	IC50	2.1 nM
Cc1ccc(N=C2CC(=O)c3sc(C)nc3C2=O)cc1	Protein arginine N-methyltransferase 1 (PRMT1, Homo sapiens, UniProt Q99873)	enzyme activity, inhibitor	–	–	–	IC50	> 100000 nM
CCOc1cc(CN2CCC3(CC2)CN(c2ccc(C(=O)O)cc2)C(=O)N3)c(C2CC2)cc1C	Somatostatin receptor type 5 (SSTR5, Homo sapiens, UniProt P35346, N100T/Q99S)	cAMP level, agonist, GloSensor	AD293	Q99S/N100T mutant, with: CST17 EC80 and forskolin	–	IC50	30.2 nM
O=C(Nc1cccc(N2CCNCC2)c1)c1cc(-c2ccccc2)n(-c2ccccc2)n1	Genome polyprotein, NS2B-NS3 protease (dengue virus type 2, UniProt P29990)	enzyme activity	–	with: AMC substrate 50 µM	–	IC50	7900 nM
CCn1nc(Cl)c2c1-c1cnc(N)c(c1)O[C@H](C)c1cc(F)ccc1-c1nn(C)cc1C2	Ephrin type-A receptor 1 (EPHA1, Homo sapiens, UniProt P21709)	enzyme activity, inhibitor, radiometric	–	–	–	IC50	640 nM
Cc1nc2c(F)cc(-c3nc(Nc4ccc(C(=O)NCCCCC(=O)NO)cc4)ncc3F)cc2n1C(C)C	CDK4	–	–	–	–	IC50	9 nM
CN1CCc2cc(Br)c(O)cc2C(c2ccc(NC(=O)CCOCCOCCOCCN=[N+]=[N-])cc2)C1 (centres unmarked)	D(1A) dopamine receptor (DRD1, Homo sapiens, UniProt P21728)	cell-based	–	–	–	IC50	135 nM
Cc1nn(-c2cccc(N)c2)c(=O)c2cnc(Nc3ccc(N4CCNCC4)cc3)nc12	Fibroblast growth factor receptor 4 (FGFR4, Homo sapiens, UniProt P22455)	enzyme activity, inhibitor	–	–	–	IC50	> 10000 nM
Cc1ncsc1-c1ccc(C(C)NC(=O)C2CC(O)CN2C(=O)C(NC(=O)CCCCCCCCCCN2CCCC(Nc3ncc(Cl)c(Nc4ccccc4S(=O)(=O)C(C)C)n3)C2)C(C)(C)C)cc1 (centres unmarked)	22Rv1	RNA-seq, measured: PPFIA3 mRNA	–	concentration not given	relative to: DMSO	log2 fold change	-1.01
Cc1nc2c(F)cc(-c3nc(Nc4ccc(CNC(=O)CCCCC(=O)NO)cc4)ncc3F)cc2n1C(C)C	CDK4	–	–	–	–	IC50	0.87 nM
COC1CN([C@H]2CC[C@H]([C@@]3(C)Oc4c(Cl)cc(C(=O)NCc5c(SC)cc(C)[nH]c5=O)c(C)c4O3)CC2)C1	–	RNA-seq, measured: CDKL1	human, whole blood	dose not given, 24 h	relative to: pretreatment baseline	log2 fold change	1.02

SMILES	target or system	assay	system	conditions	scale	quantity	result
COC(=O)CCCCCCC(=O)Nc1ccc(Nc2ncc(F)c(-c3cc(F)c4nc(C)n(C(C)C)c4c3)n2)cn1	CDK4	–	–	–	–	IC50	2.8 nM
C=CC(=O)Nc1cccc(Cn2ncc3cnc(Nc4cnn(CCOC)c4)nc32)c1	CAMK2A human	binding, KINOMEscan	–	100 nM	lower = stronger binding	percent of control	100%
O=c1cc(-c2ccc(O)cc2)oc2c1ccc1occc12	Cyclin-dependent kinase 7, with cyclin H (CDK7, Homo sapiens, UniProt P50613)	enzyme activity, inhibitor, ADP detection	–	–	–	IC50	1280 nM
O=C(NC1CCC1)[C@H](Cc1c[nH]c2ccccc12)NC(=O)[C@H](CCCCNC(=S)NCCc1n[nH]c(=S)o1)NS(=O)(=O)c1cccc(F)c1	SIRT5	enzyme activity, inhibitor	–	–	–	IC50	5400 ± 500 nM
O=C(O)C(Cc1c[nH]cn1)N1C(=O)c2ccc3c4ccc5c6c(ccc(c7ccc(c2c37)C1=O)c64)C(=O)N(CCN1CCCCC1)C5=O (centres unmarked)	hTERT promoter G-quadruplex DNA	binding, thiazole orange displacement	–	pH 8	–	DC50	720 ± 250 nM
CC[C@H](C)[C@@H]1NC(=O)[C@H](Cc2ccccc2C(F)(F)F)NC(=O)CCSCc2cccc(n2)CSCCCNC(=O)[C@H](CCCCCC(=O)N(O)CCCCCCCl)NC1=O	Histone deacetylase 11 (HDAC11, Homo sapiens, UniProt Q96DB2)	enzyme activity, inhibitor, fluorescence	–	–	–	IC50	23 nM
Cc1cc(C(=O)NCC(F)c2ccc(Cl)cc2Cl)c(Oc2cccc(C3CC3)c2)nn1 (centres unmarked)	serine palmitoyltransferase (Botrytis cinerea, UniProt A0A384JAG3+A0A384JQT2)	–	–	–	–	IC50	9 ± 3 nM
COC(=O)Cc1cc2c(cc1C(=O)c1ccccc1)OCO2	Gria2	glutamate-evoked current, inhibitor, whole-cell patch clamp	HEK293T, homomeric receptor	–	–	IC50	5890 nM
CCN(CC)CC(=O)Nc1cccc(-n2cc(-c3ccc4ccc(-c5cn(-c6cccc(NC(=O)CN(CC)CC)c6)nn5)cc4c3)nn2)c1	CDK4 with cyclin D1	–	–	–	–	IC50	> 10000 nM
CC(C)[C@H](NC(=O)[C@@H]1CCCN1C(=O)[C@H](CCCCN)NC(=O)[C@H](Cc1ccccc1)NC(=O)[C@H](Cc1ccccc1)NC(=O)[C@H](CC(=O)O)NC(=O)[C@H](CCC(=O)O)NC(=O)[C@H](Cc1ccc(O)cc1)NC(=O)[C@H](CC(=O)O)NC(=O)[C@H](CCC(=O)O)NC(=O)[C@H](CC(=O)O)NC(=O)[C@@H](N)CCC(=O)O)C(=O)N[C@H](C(=O)N[C@@H](C)C(=O)N[C@@H](Cc1ccc(O)cc1)C(=O)N[C@@H](Cc1ccccc1)C(N)=O)[C@@H](C)O	C-C motif chemokine 8 (CCL8, Homo sapiens, UniProt P80075)	cell migration, inhibitor	THP-1	with: CCL8 at EC80	–	IC50	459 nM
O=C(Cn1ncc2cccn2c1=O)NC(c1ccccc1)c1ccccc1	VKORC1	carboxylation, inhibitor, ELISA	HEK293 stably expressing	24 h, with: vitamin K epoxide 5 µM	–	IC50	38900 nM
C=CC(=O)N1CC2(CCN(c3nc(OC4CCN(CCCOC)CC4)nc4c(OCC(F)(F)F)c(-c5c(C)ccc6[nH]ncc56)c(C5CC5)cc34)CC2)C1	GTPase KRas, GDP-bound (KRAS, Homo sapiens, UniProt P01116, G13D)	SPR	–	–	–	Kd	1110 ± 230 nM
Clc1cc(Cl)c2c(c1)[C@H](NCCCNc1nc3cccnc3[nH]1)CCO2	MARS2	enzyme activity, inhibitor	–	–	–	IC50	17.5 nM
O=C(Cn1ncc2cccn2c1=O)N1CCCC1	VKORC1	carboxylation, inhibitor, cell-based	–	–	–	IC50	32600 nM
Cc1ccc(C(=O)Nc2ccnc(S(N)(=O)=O)c2)c(N2CCCC(F)(F)CC2)n1	Sodium channel protein type 9 subunit alpha (SCN9A, Homo sapiens, UniProt Q15858)	Nav1.7 sodium current, inhibitor, automated patch clamp	–	–	–	IC50	> 33800 nM
CC(C)(COP(=O)(O)OP(=O)(O)OC[C@H]1O[C@@H](n2cnc3c(N)ncnc32)[C@H](O)[C@@H]1OP(=O)(O)O)[C@@H](O)C(=O)NCCC(=O)NCCSCC(=O)N[C@@H](CO)C(=O)NCC(=O)N[C@@H](CCCNC(=N)N)C(N)=O	N-alpha-acetyltransferase 40 (NAA40, Homo sapiens, UniProt Q86UY6)	enzyme activity, inhibitor, fluorescence	–	–	–	IC50	167 nM
Fc1ccc2[nH]c(NCCCNCc3cc(Cl)cc(Cl)c3)nc2c1	MARS2	enzyme activity, inhibitor	–	–	–	IC50	635 nM
O=C(Cn1ncc2cccn2c1=O)N1CCOCC1	VKORC1	carboxylation, inhibitor, ELISA	HEK293 stably expressing	24 h, with: vitamin K epoxide 5 µM	–	IC50	91600 nM
N=C(N)NCCC[C@H](NC(=O)[C@H](CCCCNC(=S)NCCC(=O)O)NS(=O)(=O)c1cccc(F)c1)C(=O)NC1CCC1	SIRT5	inhibitor, fluorogenic	–	pre-incubation 24 h, with: NAD+ 500 µM	–	IC50	103 ± 5 nM
CC(=O)N1c2ccc(-c3ccc(CNC(=O)c4cn5cc(-c6cnc(N)nc6)nc(N6CCOCC6)c5n4)cc3)cc2CC[C@@H]1C	Serine/threonine-protein kinase mTOR (MTOR, Homo sapiens, UniProt P42345)	enzyme activity, inhibitor, radiometric	–	–	–	IC50	> 10000 nM
CC(C)C[C@@H]1NC(=O)[C@H](C(C)C)NC(=O)[C@H](Cc2c[nH]c3ccccc23)NC(=O)[C@@H]2CSSC[C@H](NC(=O)[C@H](Cc3ccc(O)cc3)NC(=O)[C@H](C(C)C)NC(=O)[C@H](CCCNC(=N)N)NC(=O)CNC(=O)[C@H]3CCCN3C1=O)C(=O)N[C@@H](CCC(N)=O)C(=O)N1CCC[C@H]1C(=O)NCC(=O)N[C@@H](Cc1c[nH]c3ccccc13)C(=O)N2	Inducible T-cell costimulator, with ICOS ligand (Homo sapiens, UniProt Q9Y6W8)	ICOS/ICOS-L binding, inhibitor, competitive ELISA	–	–	–	IC50	17500 ± 1260 nM
CC(C)(C)n1ncc2c(=O)n(Cc3cccc(F)c3)c(NCc3ccc(F)cn3)nc21	Cytochrome P450 3A4 (CYP3A4, Homo sapiens, UniProt P08684)	inhibitor	–	–	–	IC50	17100 nM
O=C1Nc2c(Br)cccc2/C1=C1/Nc2ccccc2C1=NO	CDK4 with cyclin D1	–	–	–	–	IC50	> 10000 nM
COC(=O)CCCCCCC(=O)NCc1ccc(Nc2ncc(F)c(-c3cc(F)c4nc(C)n(C(C)C)c4c3)n2)cc1	CDK4	–	–	–	–	IC50	2.1 nM
CCCC[C@H](NC(=O)CNC(=O)CNC(=O)[C@H](CCCCNC(=O)[C@H](CC(N)=O)NC(=O)C(C)c1ccc(CC(C)C)cc1)NC(=O)CN1CCN(CC(=O)O)CCN(CC(=O)O)CCN(CC(=O)O)CC1)C(=O)N[C@H]1CC(=O)NCCCC[C@@H](C(N)=O)NC(=O)[C@H](Cc2c[nH]c3ccccc23)NC(=O)[C@H](CCCNC(=N)N)NC(=O)[C@@H](Cc2ccccc2)NC(=O)[C@H](Cc2c[nH]cn2)NC1=O (some centres unmarked)	Melanocyte-stimulating hormone receptor (Mc1r, Mus musculus, UniProt Q01727)	radioligand binding, competitor	B16-F10 mouse melanoma	2 h, 25 °C, with: radiolabelled NDP-MSH	–	IC50	0.03 ± 0.01 nM

Excerpt of the above:
SMILES	target or system	assay	system	conditions	scale	quantity	result
CC[C@H](C)[C@@H]1NC(=O)[C@H](Cc2ccccc2C(F)(F)F)NC(=O)CCSCc2cccc(n2)CSCCCNC(=O)[C@H](CCCCCC(=O)N(O)CCCCCCCl)NC1=O	Histone deacetylase 11 (HDAC11, Homo sapiens, UniProt Q96DB2)	enzyme activity, inhibitor, fluorescence	–	–	–	IC50	23 nM
O=C1Nc2c(Br)cccc2/C1=C1/Nc2ccccc2C1=NO	CDK4 with cyclin D1	–	–	–	–	IC50	> 10000 nM
N#Cc1ccc(Nc2nc(N)cc(Oc3ccc(-c4cccc(F)c4)cc3F)n2)cc1	Gag-Pol polyprotein, reverse transcriptase (gag-pol, Human immunodeficiency virus 1, UniProt P03366)	enzyme activity, inhibitor	–	–	–	IC50	120 nM
O=C(CN1CN(c2ccccc2)C2(CCN(C(=O)c3ccc4[nH]nnc4c3)CC2)C1=O)NCC(F)(F)F	DDR2	ligand displacement	–	–	–	IC50	65800 nM
